Assay results collected from several papers.
Compare with care: the assays were run in different laboratories. “And” joins repeats or separate records; there may be more than shown. Numbers after ± are the reported error.
EGFR G719S: Epidermal growth factor receptor (EGFR, Homo sapiens, UniProt P00533, G719S)
DRD5: D(1B) dopamine receptor (DRD5, Homo sapiens, UniProt P21918)
XPO1: Exportin-1 (XPO1, Homo sapiens, UniProt O14980)
PIAS1: E3 SUMO-protein ligase PIAS1 (PIAS1, Homo sapiens, UniProt O75925)
Nuclear receptor subfamily 2 group C member 2 ligand-binding domain: Nuclear receptor subfamily 2 group C member 2, ligand-binding domain (Homo sapiens, UniProt P49116)
Pancreatic alpha-amylase: Pancreatic alpha-amylase (Homo sapiens, UniProt P04746)

Compound | target | test | system | conditions | how to read | quantity | result
N#Cc1ccc(Cn2cncc2CN2CCN(c3cccc(OC(F)(F)F)c3)C(=O)C2)cc1 | Cryptococcus neoformans farnesyltransferase | enzyme activity, inhibitor, fluorescence | – | together with: 1 µM FPP, 0.5 µM dansylated peptide | – | IC50 | 2.7 ± 1.1 µM
C[C@@H](c1ccc(-n2cnc3c(N)ncnc32)cc1)N1CCc2nn(C)c(Cc3ccccc3)c2C1=O | EGFR G719S | KINOMEscan | – | 0.1 µM | baseline: DMSO control | remaining binding | 85%
Clc1cncc(OC[C@@H]2CN(CCN3CCc4ccccc43)CCO2)c1 | DRD5 | radioligand binding | – | concentration not given, together with: [3H]SCH23390 | – | inhibition | 33.7%
CCN(CCO)CCCC(C)Nc1ccnc2cc(Cl)ccc12 (centres unmarked) | Sodium channel protein type 5 subunit alpha (SCN5A, Homo sapiens, UniProt Q14524) | sodium current, whole-cell patch clamp | – | 100 µM, without ATX-II | – | activation slope factor | 2.09 mV/e-fold and 3.68 mV/e-fold and 5.23 mV/e-fold
Nc1ncnc2c1ncn2[C@@H]1O[C@H](COP(=O)(O)CP(=O)(O)OP(=O)(O)O)[C@@H](O)[C@H]1O | P2X purinoceptor 1 (P2RX1, Homo sapiens, UniProt P51575, K215A) | calcium influx | – | 31.6 nM | baseline: ionomycin response | calcium influx | 7.57% and 8.04% and 16.5%
O=C(COP(=O)(O)O)[C@@H](O)[C@H](O)[C@H](O)COP(=O)(O)O | Pyridoxal-dependent decarboxylase domain-containing protein 1 (PDXDC1, Homo sapiens, UniProt Q6P996) | thermal proteome profiling, item: PDXDC1 | HepG2 cell lysate | concentration not given, 57 over 37 °C, mean | baseline: compound over control | thermal stability ratio | 0.58
NCCCC(=O)O | Sodium- and chloride-dependent taurine transporter (SLC6A6, Homo sapiens, UniProt P31641, G62A) | binding, microscale thermophoresis | – | 7.81 µM, room temperature, together with: 50 nM labelled protein | higher = more binding | normalised MST signal | -0.0351
Oc1ccc(/C=C/c2cc(O)cc(O)c2)cc1 | O-methyltransferase (Sorghum bicolor, UniProt A0A1B6PFV1) | – | – | two-sets-of-sites model, together with: SFG | – | ΔH of exothermic site | -22.9 kJ/mol
CCS(=O)(=O)c1nc(C2CC2)cc(C(F)(F)F)n1 | XPO1 | nuclear export, high content imaging | HeLa Kyoto reporter | 1.58 µM, 2 h | – | cells with nuclear reporter | 2.81% and 3.99% and 7.31%
c1coc(-c2n[nH]cc2-c2ccnc3ccccc23)c1 | Serine/threonine-protein kinase GIN4 (GIN4, Candida albicans, UniProt Q59W62) | kinase binding, MIB/MS competition | Candida albicans lysate | 10 µM | baseline: DMSO, negative = stronger binding | log2 fold change | -0.21
Cc1cccc(N2CC(C(=O)O)CC2=O)c1 (centres unmarked) | PIAS1 | binding, affinity selection mass spectrometry | – | – | baseline: other proteins in batch | fold enrichment | 0.947
Cc1cc(-c2ccnc3[nH]cc(F)c23)cc(F)c1[C@@]1(O)[C@H](C)CN(C2CCS(=O)(=O)CC2)C[C@@H]1C | AKT1 and AKT3 | ATP probe binding, KiNativ, item: Lys2 site | HEK293T cell lysate | 0.1 µM | – | inhibition | -4.1%
O=C1NC(=O)C2(CCc3ccccc32)N1 (centres unmarked) | Gamma-aminobutyric acid receptor subunit alpha-3/beta-3, with gamma-2 subunit (Homo sapiens, UniProt P28472+P34903) | anaesthetic-induced desensitisation | – | – | baseline: alpha1beta3gamma2 over alpha3beta3gamma2 | IC50 ratio | 200 fold
c1ccc(-c2n[nH]cc2-c2ccnc3ccccc23)nc1 | Serine/threonine-protein kinase CBK1 (CBK1, Candida albicans, UniProt Q5AP53) | kinase binding, competitor, MIB/MS competition, item: CBK1 | Candida albicans cell lysate | 1 µM | baseline: DMSO | log2 fold change | 1.35
CN=C(NC)NCCC[C@H](NC(=O)[C@H](C)N)C(=O)N[C@H](C(=O)N[C@@H](CCCCN)C(=O)N[C@@H](CCC(N)=O)C(=O)N[C@H](C(=O)N[C@@H](C)C(=O)N[C@@H](CCCNC(=N)N)C(=O)N[C@@H](CCCCN)C(=O)N[C@@H](CO)C(=O)O)[C@@H](C)O)[C@@H](C)O | Transcriptional regulator ATRX (ATRX, Homo sapiens, UniProt P46100, F284Y/K251R) | isothermal titration calorimetry | – | concentration not given, pH 7.5, 25.0 °C | – | binding enthalpy | -18.4 kJ/mol
CN(C)CCCOc1nn(Cc2ccccc2)c2ccccc12 | Nuclear receptor subfamily 2 group C member 2 ligand-binding domain | SPR imaging | – | 600 nM | – | koff | 2.4e-05 s⁻¹
COCCC(=O)N1CCC(Oc2ccccc2)C1 (centres unmarked) | S-phase kinase-associated protein 1 (SKP1, Homo sapiens, UniProt P63208) | binding, affinity selection mass spectrometry | – | – | baseline: other proteins in batch | fold enrichment | 0.844
Nc1ncnc2c1ncn2[C@@H]1O[C@H](COP(=O)(O)OP(=O)(O)OP(=O)(O)O)[C@@H](O)[C@H]1O | Hexokinase-3 (HK3, Homo sapiens, UniProt P52790, N221A) | substrate | – | mutant N221A, together with: glucose 0.5 mM | – | kcat | 39 ± 22 s⁻¹

Compound | target | test | system | conditions | how to read | quantity | result
CCn1c2c(c(=O)[nH]c1=O)C1C(=C(C)N2)C(=O)NCc2ccccc2OCCCOc2ccccc21 (centres unmarked) | Bromodomain testis-specific protein, BD1 (BRDT, Homo sapiens, UniProt Q58F21) | fluorescence polarization | – | concentration not given | – | binding affinity | inactive
C=CC(=O)N1CCC(COCC(=O)N2CCN(c3nc(-c4cnc(N)nc4C(F)F)nc(N4CCOC[C@@H]4C)n3)CC2)CC1 | EGFR G719S | KINOMEscan | – | 1 µM | baseline: DMSO control | remaining binding | 97%
O=C1OC(c2ccccc2)=N/C1=C\c1ccccc1O | Pancreatic alpha-amylase | inhibitor, Lineweaver-Burk | – | 100 ppm, together with: starch substrate | – | Vmax | 0.06 mg/mL/min
O=C(O)c1ccccc1NC1=NS(=O)(=O)c2ccccc21 | Pyruvate kinase PKLR (PKLR, Homo sapiens, UniProt P30613) | enzyme activity, activator | – | 10 µM | – | activity | inactive
CC1CCCN(C(=O)c2cc3ncccn3n2)C1 (centres unmarked) | PIAS1 | binding, affinity selection mass spectrometry | – | – | baseline: other proteins in batch | fold enrichment | 1.09
Nc1nc2c(ncn2[C@@H]2O[C@H](COP(=O)(O)OP(=O)(O)O)[C@@H](O)[C@H]2O)c(=O)[nH]1 | GUK1 (Homo sapiens, UniProt Q16774, S13A) | binding, ITC | – | – | – | ΔG | -23.6 kJ/mol
Nc1[nH]nc2nnc(-c3c(-c4ccccc4)nn4ccccc34)cc12 | Mitogen-activated protein kinase 3 (MAPK3, Homo sapiens, UniProt P27361) | ADP-Glo | – | 3.81 nM, together with: MBP substrate | – | kinase activity | 77.5% and 114% and 94.6%
O=c1nc(SCc2cc(F)cc(C(F)(F)F)c2)nc(SCc2ccc3sccc3c2)[nH]1 | DNA topoisomerase 2-alpha (TOP2A, Homo sapiens, UniProt P11388) | decatenation | – | 31.25 µM, replicate 1 | – | decatenated DNA | 0.14%
CC[C@H](C)[C@@H]1NC(=O)[C@H]([C@@H](C)O)NC(=O)[C@@H]2CCCN2C(=O)[C@H](CC(C)C)NC(=O)[C@H](Cc2ccc(O)cc2)NC(=O)CSC[C@@H](C(N)=O)NC(=O)[C@H](CC(C)C)NC(=O)[C@@H]2CCCN2C(=O)[C@H](Cc2c[nH]cn2)NC(=O)[C@H](Cc2c[nH]c3ccccc23)NC(=O)[C@H](CC(C)C)NC(=O)[C@H](Cc2c[nH]cn2)NC(=O)CNC(=O)[C@H](C(C)C)NC(=O)CNC(=O)[C@H]([C@@H](C)O)NC1=O | VPS35/VPS29 (Homo sapiens, UniProt Q96QK1+Q9UBQ0) | binding, isothermal titration calorimetry | – | 25 °C | – | ΔH | -36.4 ± 7.11 kJ/mol
c1cncc(OC[C@@H]2CN(CCN3CCc4ccccc43)CCO2)c1 | DRD5 | radioligand binding | – | concentration not given, together with: [3H]SCH23390 | – | inhibition | 5.5%
Nc1ccc(C(=O)O)cc1 | BEST1, with wild-type BEST1 (Homo sapiens, UniProt O76090, D302A) | ion current, whole-cell patch clamp | HEK293 co-expressing mutant and wild-type | concentration not given, voltage -80 mV | – | current density | -18.4 pA/pF and -12.7 pA/pF and -6.28 pA/pF and -6.14 pA/pF and -11.6 pA/pF and -14.3 pA/pF
O=C1[C@H](CC[C@H](O)c2ccc(F)cc2)[C@@H](c2ccc(O)cc2)N1c1ccc(F)cc1 | Nuclear receptor subfamily 2 group C member 2 ligand-binding domain | SPR imaging | – | 600 nM | – | koff | 2.43e-05 s⁻¹
C[S+](CC[C@H](N)C(=O)[O-])C[C@H]1O[C@@H](n2cnc3c(N)ncnc32)[C@H](O)[C@@H]1O (some centres unmarked) | Histone-lysine N-methyltransferase 2C (KMT2C, Homo sapiens, UniProt Q8NEZ4) | substrate, enzyme-coupled methylation | – | together with: H3 peptide 800 µM | – | apparent Km | 20.9 ± 1.8 µM
COC(=O)[C@H]1[C@H]2C[C@@H]3c4[nH]c5cc(OC)ccc5c4CCN3C[C@H]2C[C@@H](OC(=O)c2cc(OC)c(OC)c(OC)c2)[C@@H]1OC | Nuclear receptor subfamily 2 group C member 2 ligand-binding domain | SPR imaging | – | 600 nM | – | koff | 4.12e-05 s⁻¹
Oc1ccc([C@@H]2c3c(O)cc(O)cc3[C@@H]3c4c(cc(O)c5c4[C@@H]2[C@H](c2ccc(O)cc2)[C@H]5c2cc(O)cc4c2[C@@H](c2cc(O)cc(O)c2)[C@H](c2ccc(O)cc2)O4)O[C@H]3c2ccc(O)cc2)cc1 | Pancreatic alpha-amylase | enzyme activity | – | 5 µM | – | Vmax | 1370 ± 182 µmol/min
Nc1nccs1 | Nuclear receptor subfamily 2 group C member 2 ligand-binding domain | SPR imaging | – | 600 nM | – | koff | 2.12e-05 s⁻¹
CC[S+]([O-])c1nc(-c2ccccc2)cc(C(F)(F)F)n1 (centres unmarked) | XPO1 | nuclear export, high content imaging | HeLa Kyoto reporter | 0.0158 µM, 2 h | – | cells with nuclear reporter | 1.62% and 0.99% and 4.49%

Some of these lines once more:
Compound | target | test | system | conditions | how to read | quantity | result
O=C1NC(=O)C2(CCc3ccccc32)N1 (centres unmarked) | Gamma-aminobutyric acid receptor subunit alpha-3/beta-3, with gamma-2 subunit (Homo sapiens, UniProt P28472+P34903) | anaesthetic-induced desensitisation | – | – | baseline: alpha1beta3gamma2 over alpha3beta3gamma2 | IC50 ratio | 200 fold
c1ccc(-c2n[nH]cc2-c2ccnc3ccccc23)nc1 | Serine/threonine-protein kinase CBK1 (CBK1, Candida albicans, UniProt Q5AP53) | kinase binding, competitor, MIB/MS competition, item: CBK1 | Candida albicans cell lysate | 1 µM | baseline: DMSO | log2 fold change | 1.35
CN=C(NC)NCCC[C@H](NC(=O)[C@H](C)N)C(=O)N[C@H](C(=O)N[C@@H](CCCCN)C(=O)N[C@@H](CCC(N)=O)C(=O)N[C@H](C(=O)N[C@@H](C)C(=O)N[C@@H](CCCNC(=N)N)C(=O)N[C@@H](CCCCN)C(=O)N[C@@H](CO)C(=O)O)[C@@H](C)O)[C@@H](C)O | Transcriptional regulator ATRX (ATRX, Homo sapiens, UniProt P46100, F284Y/K251R) | isothermal titration calorimetry | – | concentration not given, pH 7.5, 25.0 °C | – | binding enthalpy | -18.4 kJ/mol
CN(C)CCCOc1nn(Cc2ccccc2)c2ccccc12 | Nuclear receptor subfamily 2 group C member 2 ligand-binding domain | SPR imaging | – | 600 nM | – | koff | 2.4e-05 s⁻¹
COCCC(=O)N1CCC(Oc2ccccc2)C1 (centres unmarked) | S-phase kinase-associated protein 1 (SKP1, Homo sapiens, UniProt P63208) | binding, affinity selection mass spectrometry | – | – | baseline: other proteins in batch | fold enrichment | 0.844
